Measured values of several laboratories.
Protocols differ between the studies behind these lines.
4'-phosphopantetheinyl transferase PptT: 4'-phosphopantetheinyl transferase PptT (Mycobacterium tuberculosis, UniProt O33336)
Chain of UniProt O33336 (whole entry, looked up): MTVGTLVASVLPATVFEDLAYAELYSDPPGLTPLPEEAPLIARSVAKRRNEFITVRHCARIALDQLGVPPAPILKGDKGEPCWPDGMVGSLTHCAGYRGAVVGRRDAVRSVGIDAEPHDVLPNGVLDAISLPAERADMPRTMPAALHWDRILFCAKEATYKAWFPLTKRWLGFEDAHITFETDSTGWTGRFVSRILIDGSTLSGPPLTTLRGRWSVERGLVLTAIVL
Chain of UniProt Q8IVH8 (whole entry, looked up): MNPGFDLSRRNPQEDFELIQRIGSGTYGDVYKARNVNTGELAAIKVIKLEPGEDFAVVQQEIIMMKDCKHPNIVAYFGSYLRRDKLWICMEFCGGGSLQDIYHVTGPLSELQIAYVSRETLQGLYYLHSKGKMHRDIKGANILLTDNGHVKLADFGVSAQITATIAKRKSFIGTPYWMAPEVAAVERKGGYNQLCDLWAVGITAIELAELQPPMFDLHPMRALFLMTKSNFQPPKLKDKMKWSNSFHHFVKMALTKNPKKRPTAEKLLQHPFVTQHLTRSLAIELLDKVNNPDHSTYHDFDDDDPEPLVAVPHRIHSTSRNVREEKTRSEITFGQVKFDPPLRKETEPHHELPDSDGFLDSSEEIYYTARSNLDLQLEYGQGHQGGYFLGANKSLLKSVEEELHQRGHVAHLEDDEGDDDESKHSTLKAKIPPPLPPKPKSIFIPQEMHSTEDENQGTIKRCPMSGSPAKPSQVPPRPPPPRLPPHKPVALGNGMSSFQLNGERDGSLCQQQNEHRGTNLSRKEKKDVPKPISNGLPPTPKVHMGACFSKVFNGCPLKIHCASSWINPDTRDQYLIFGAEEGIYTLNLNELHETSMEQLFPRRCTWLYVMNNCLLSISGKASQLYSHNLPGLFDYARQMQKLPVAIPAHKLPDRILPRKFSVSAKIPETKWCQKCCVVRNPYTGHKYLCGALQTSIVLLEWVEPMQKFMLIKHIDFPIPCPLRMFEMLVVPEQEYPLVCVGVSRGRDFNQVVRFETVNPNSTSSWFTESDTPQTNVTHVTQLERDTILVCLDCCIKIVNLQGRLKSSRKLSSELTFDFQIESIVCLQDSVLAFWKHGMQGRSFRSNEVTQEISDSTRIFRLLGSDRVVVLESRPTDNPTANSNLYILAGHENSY
Chain of UniProt P41146 (whole entry, looked up): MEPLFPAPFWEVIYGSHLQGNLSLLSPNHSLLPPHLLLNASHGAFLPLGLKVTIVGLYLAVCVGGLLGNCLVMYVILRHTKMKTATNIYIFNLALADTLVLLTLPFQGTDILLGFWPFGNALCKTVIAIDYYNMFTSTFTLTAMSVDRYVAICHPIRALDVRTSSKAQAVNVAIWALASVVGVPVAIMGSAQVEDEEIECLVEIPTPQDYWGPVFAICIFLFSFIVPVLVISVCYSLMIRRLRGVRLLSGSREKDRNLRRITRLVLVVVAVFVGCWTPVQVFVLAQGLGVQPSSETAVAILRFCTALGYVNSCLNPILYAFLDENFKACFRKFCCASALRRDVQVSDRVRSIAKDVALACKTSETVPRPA
Chain of UniProt P07333 (whole entry, looked up): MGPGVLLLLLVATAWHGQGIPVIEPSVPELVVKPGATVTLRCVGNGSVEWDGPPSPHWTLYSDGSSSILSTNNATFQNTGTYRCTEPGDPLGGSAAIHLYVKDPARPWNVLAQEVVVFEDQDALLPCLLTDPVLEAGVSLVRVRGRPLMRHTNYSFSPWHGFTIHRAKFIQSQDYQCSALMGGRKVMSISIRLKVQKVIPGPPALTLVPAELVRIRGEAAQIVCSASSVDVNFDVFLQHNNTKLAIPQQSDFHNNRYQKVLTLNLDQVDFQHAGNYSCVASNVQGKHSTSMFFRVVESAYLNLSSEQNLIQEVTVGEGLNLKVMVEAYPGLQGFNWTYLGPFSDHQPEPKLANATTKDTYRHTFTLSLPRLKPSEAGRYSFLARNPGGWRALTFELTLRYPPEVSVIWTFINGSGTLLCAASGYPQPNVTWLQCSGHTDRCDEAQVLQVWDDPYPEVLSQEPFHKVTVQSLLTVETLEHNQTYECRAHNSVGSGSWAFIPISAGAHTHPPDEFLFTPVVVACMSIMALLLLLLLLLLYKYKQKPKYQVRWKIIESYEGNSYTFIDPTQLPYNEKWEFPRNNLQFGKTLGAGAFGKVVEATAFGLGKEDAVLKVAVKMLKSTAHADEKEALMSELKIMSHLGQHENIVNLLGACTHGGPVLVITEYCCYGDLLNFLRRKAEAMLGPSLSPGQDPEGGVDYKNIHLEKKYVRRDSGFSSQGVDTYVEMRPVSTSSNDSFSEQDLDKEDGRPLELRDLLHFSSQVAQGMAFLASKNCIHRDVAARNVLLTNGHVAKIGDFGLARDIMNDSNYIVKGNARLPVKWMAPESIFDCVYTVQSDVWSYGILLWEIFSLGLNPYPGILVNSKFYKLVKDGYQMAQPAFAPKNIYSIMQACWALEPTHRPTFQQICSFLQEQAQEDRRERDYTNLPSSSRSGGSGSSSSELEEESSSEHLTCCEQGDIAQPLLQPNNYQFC
Chain of UniProt Q13188 (whole entry, looked up): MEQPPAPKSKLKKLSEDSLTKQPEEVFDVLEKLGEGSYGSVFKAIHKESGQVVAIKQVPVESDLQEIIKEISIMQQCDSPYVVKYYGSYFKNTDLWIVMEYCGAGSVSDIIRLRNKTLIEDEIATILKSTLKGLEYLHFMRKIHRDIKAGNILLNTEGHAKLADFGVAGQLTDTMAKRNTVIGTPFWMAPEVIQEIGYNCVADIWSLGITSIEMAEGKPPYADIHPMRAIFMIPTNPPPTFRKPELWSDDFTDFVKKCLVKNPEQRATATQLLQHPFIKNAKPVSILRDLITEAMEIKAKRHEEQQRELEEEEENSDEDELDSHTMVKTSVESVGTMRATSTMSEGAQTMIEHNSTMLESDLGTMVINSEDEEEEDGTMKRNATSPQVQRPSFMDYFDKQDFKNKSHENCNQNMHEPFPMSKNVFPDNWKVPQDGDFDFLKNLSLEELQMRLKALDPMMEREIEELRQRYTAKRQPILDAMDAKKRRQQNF
Chain of UniProt P34972 (whole entry, looked up): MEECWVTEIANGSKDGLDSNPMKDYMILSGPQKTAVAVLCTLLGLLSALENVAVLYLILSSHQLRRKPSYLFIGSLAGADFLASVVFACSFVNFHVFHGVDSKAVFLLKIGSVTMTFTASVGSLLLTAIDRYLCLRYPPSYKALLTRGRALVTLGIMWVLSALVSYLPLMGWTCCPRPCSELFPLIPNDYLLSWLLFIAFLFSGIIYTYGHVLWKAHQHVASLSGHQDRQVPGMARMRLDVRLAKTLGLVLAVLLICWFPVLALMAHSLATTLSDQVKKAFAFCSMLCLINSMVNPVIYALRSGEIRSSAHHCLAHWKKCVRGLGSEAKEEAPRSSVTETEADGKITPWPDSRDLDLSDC
Chain of UniProt P28222 (whole entry, looked up): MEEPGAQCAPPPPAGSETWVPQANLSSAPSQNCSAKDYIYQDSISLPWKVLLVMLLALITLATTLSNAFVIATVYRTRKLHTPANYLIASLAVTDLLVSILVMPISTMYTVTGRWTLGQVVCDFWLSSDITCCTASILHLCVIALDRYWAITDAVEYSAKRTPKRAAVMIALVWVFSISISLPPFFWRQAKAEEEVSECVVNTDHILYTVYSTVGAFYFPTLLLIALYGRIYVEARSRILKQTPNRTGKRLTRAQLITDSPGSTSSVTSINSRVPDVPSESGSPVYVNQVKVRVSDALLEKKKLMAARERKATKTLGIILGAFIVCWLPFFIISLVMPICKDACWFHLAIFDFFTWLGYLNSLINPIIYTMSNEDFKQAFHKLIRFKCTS
Chain of UniProt O15530 (whole entry, looked up): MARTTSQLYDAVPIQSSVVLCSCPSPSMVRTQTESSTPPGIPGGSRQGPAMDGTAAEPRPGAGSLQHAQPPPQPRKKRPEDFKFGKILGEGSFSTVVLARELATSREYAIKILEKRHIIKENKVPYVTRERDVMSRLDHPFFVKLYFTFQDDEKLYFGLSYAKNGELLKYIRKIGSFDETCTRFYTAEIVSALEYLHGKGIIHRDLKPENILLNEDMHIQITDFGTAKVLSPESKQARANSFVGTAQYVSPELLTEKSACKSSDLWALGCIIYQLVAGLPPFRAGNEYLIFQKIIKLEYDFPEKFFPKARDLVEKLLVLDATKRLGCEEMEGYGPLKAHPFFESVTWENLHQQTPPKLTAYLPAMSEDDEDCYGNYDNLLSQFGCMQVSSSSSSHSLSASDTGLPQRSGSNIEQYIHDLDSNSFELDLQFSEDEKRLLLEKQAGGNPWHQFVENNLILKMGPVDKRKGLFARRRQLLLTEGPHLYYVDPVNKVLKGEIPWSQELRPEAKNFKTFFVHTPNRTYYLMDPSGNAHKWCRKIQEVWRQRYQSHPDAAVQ
Chain of UniProt P34969 (whole entry, looked up): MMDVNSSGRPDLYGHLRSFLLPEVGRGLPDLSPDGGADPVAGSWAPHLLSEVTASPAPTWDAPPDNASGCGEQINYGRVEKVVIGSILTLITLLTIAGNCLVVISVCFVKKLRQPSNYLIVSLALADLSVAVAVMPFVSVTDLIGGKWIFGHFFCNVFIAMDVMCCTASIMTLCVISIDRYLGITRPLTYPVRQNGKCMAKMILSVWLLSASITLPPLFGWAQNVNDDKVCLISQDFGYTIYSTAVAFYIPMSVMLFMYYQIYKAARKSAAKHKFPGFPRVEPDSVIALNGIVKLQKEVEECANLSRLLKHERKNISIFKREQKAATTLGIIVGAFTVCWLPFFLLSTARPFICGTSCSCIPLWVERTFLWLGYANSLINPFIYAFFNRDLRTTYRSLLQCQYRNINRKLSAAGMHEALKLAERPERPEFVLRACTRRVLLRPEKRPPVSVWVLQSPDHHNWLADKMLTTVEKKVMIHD

`O=c1c2cc(Cl)ccc2[nH]c(=S)n1CCc1cccnc1` gave an IC50 of 1830 nM (4'-phosphopantetheinyl transferase PptT; enzyme activity, inhibitor, FP).
`CN1CCC[C@H]1c1cccnc1` gave an inhibition of -10% (5-hydroxytryptamine receptor 7 (HTR7, Homo sapiens, UniProt P34969); ligand displacement; 50 µM).
`C#Cc1n[nH]c2c(-c3cn(C(C)c4ccccn4)c(=O)[nH]c3=O)cc(F)cc12` (centres unmarked) gave an inhibition of 11.3% (3-phosphoinositide-dependent protein kinase 1 (PDPK1, Homo sapiens, UniProt O15530); enzyme activity, inhibitor; 1 µM).
With `COc1ncccc1-c1cnn2ccc(N3CCN(C(=O)OC(C)C)CC3)nc12` the remaining binding was 74% (Mitogen-activated protein kinase kinase kinase kinase 3 (MAP4K3, Homo sapiens, UniProt Q8IVH8); binding, competition with immobilised ligand; 1 µM).
`Cc1nn(C)cc1-c1nc2c(N3CCN(Cc4ccc(Cl)cc4)CC3)c(Cl)cnc2[nH]1` gave a remaining binding of 100% (Serine/threonine-protein kinase 3 (STK3, Homo sapiens, UniProt Q13188); binding, competition with immobilised ligand; 1 µM).
`CC(C)CC(=O)OC[C@H]1O[C@@](C#N)(c2ccc3c(N)ncnn23)[C@H](O)[C@@H]1O` gave an inhibition of 6% (5-hydroxytryptamine receptor 1B (HTR1B, Homo sapiens, UniProt P28222); cell-free assay; 20 µM).
With `CCCCC/C=C\C/C=C\C/C=C\C/C=C\CCCC(=O)NCCO` the Emax was 40% (Cannabinoid receptor 2 (CNR2, Homo sapiens, UniProt P34972); β-arrestin recruitment, agonist).
`[2H]c1c([2H])c([C@]2([2H])CCCN2C(=O)C(C)(C)Oc2ccc3cn[nH]c3c2)c([2H])c([2H])c1C([2H])([2H])[2H]` has a remaining binding of 98% (Macrophage colony-stimulating factor 1 receptor, autoinhibited (CSF1R, Homo sapiens, UniProt P07333); binding, competition with immobilised ligand; 1 µM).
`Nc1ncc(-c2nc(N3CCOCC3)nc(N3CCOCC3)n2)c(C(F)F)n1` has a remaining binding of 48% (Receptor-type tyrosine-protein kinase FLT3 (FLT3, Homo sapiens, UniProt P36888, K663Q); binding, competition with immobilised ligand; 10 µM).
The Emax of `Oc1cccc(N2C[C@H]3CC[C@@H](C2)N3CCCc2ccccc2)c1` is reported as 0% (Nociceptin receptor (OPRL1, Homo sapiens, UniProt P41146); cAMP, agonist).
The IC50 of `COCc1ccc2[nH]c(=S)n(Cc3cccnc3)c(=O)c2c1` is reported as 1390 nM (4'-phosphopantetheinyl transferase PptT; enzyme activity, inhibitor, FP).

For quick reference, copied from above:
`O=c1c2cc(Cl)ccc2[nH]c(=S)n1CCc1cccnc1` gave an IC50 of 1830 nM (4'-phosphopantetheinyl transferase PptT; enzyme activity, inhibitor, FP).
